Measured values gathered from unrelated publications.
Compare with care: the assays were run in different laboratories.
Organism: Escherichia coli

CC[C@H](C)[C@H](NC(=O)[C@H](CC(C)C)NC(=O)[C@H](CCCNC(=N)N)NC(=O)[C@@H](N)CCCNC(=N)N)C(=O)N[C@@H](CCCNC(=N)N)C(=O)N[C@@H](CCCCN)C(=O)N[C@@H](CC(C)C)C(=O)N[C@@H](CCCCN)C(=O)NCC(=O)N1CCC[C@H]1C(=O)N[C@@H](CCCCN)C(=O)N[C@H](C(=O)N[C@@H](Cc1ccc(O)cc1)C(=O)N[C@@H](CC(C)C)C(=O)N[C@@H](Cc1ccc(O)cc1)C(=O)N[C@@H](Cc1ccccc1)C(=O)N[C@@H](CCCCN)C(=O)N[C@@H](CC(C)C)C(=O)N[C@@H](CCC(N)=O)C(=O)N[C@@H](CC(C)C)C(=O)N[C@@H](CC(C)C)C(=O)N[C@@H](CCCCN)C(=O)N[C@@H](CCCCN)C(N)=O)[C@@H](C)CC
MIC (broth microdilution; KCTC 1682, Mueller-Hinton broth; 24 h, 37 °C): 16 µM

CC(=O)OCC1=C(C(=O)O)N2C(=O)[C@@H](NC(=O)Cc3cccs3)[C@H]2SC1
MIC (BL21(DE3) wild type): 31.2 µg/mL

CC[C@H](C)[C@H](NC(=O)[C@H](CC(C)C)NC(=O)[C@H](CCCCN)NC(=O)[C@@H](NC(=O)[C@H](C)NC(=O)[C@H](CCC(=O)O)NC(=O)[C@H](Cc1c[nH]cn1)NC(=O)[C@@H](NC(=O)[C@H](CCCCN)NC(=O)[C@H](CCC(N)=O)NC(=O)[C@H](Cc1ccccc1)NC(=O)[C@@H](NC(=O)[C@H](CCCCN)NC(=O)[C@H](CCCCN)NC(=O)[C@H](CC(C)C)NC(=O)[C@H](C)N)C(C)C)[C@@H](C)CC)[C@@H](C)CC)C(N)=O
MIC (broth microdilution; CCARM 1229 resistant; 18 h, 37 °C): 4 µM

O=[N+]([O-])c1ccc(O)c2ncccc12
MIC (broth microdilution; carbapenem-resistant clinical isolate): 8 µg/mL

C[C@@H](O)[C@H]1C(=O)N2C(C(=O)O)=C(S[C@@H]3CN[C@H](C(=O)N(C)C)C3)[C@H](C)[C@H]12
MIC (broth microdilution; DH5α pET28-lacUV5-VIM-2; VIM-2-producing, compound alone): 8 µg/mL

CC1(C)SC2C(NC(=O)C(NC(=O)C3=C(O)C(c4ccccc4)NC3=O)c3ccccc3)C(=O)N2C1C(=O)O (stereo not drawn)
MIC (broth microdilution; Keio mutant JW0146-2; 18 h, ferric hydroxamate uptake gene): 25 µg/mL

CN(C)c1cc(NC(=O)CNC(C)(C)C)c(O)c2c1C[C@H]1C[C@H]3[C@H](N(C)C)C(O)=C(C(N)=O)C(=O)[C@@]3(O)C(O)=C1C2=O
MIC (DH5a with empty vector): 0.125 µg/mL

CC1(C)CC[C@]2(C(=O)O)CC[C@]3(C)C(=CC[C@@H]4[C@@]5(C)CC[C@H](O)C(C)(C)[C@@H]5CC[C@]43C)[C@@H]2C1
MIC (E2, NDM-9/OXA-10): 512 µg/mL

CC[C@H](C)[C@H](NC(=O)[C@H](CC(C)C)NC(=O)[C@H](CCCNC(=N)N)NC(=O)[C@@H](N)CCCNC(=N)N)C(=O)N[C@@H](CC(C)C)C(=O)N[C@H](C(=O)N[C@@H](CCCCN)C(=O)N[C@H](C(=O)NCC(=O)N1CCC[C@H]1C(=O)N[C@H](C(=O)N[C@H](C(=O)N[C@@H](Cc1ccc(O)cc1)C(=O)N[C@@H](CCCCN)C(=O)N[C@@H](Cc1ccc(O)cc1)C(=O)N[C@@H](Cc1ccccc1)C(=O)N[C@@H](CCCCN)C(=O)N[C@@H](CCCCN)C(=O)N[C@@H](CCC(N)=O)C(=O)N[C@@H](CC(C)C)C(=O)N[C@@H](CC(C)C)C(=O)N[C@@H](CCCCN)C(=O)N[C@@H](CC(C)C)C(N)=O)[C@@H](C)CC)[C@@H](C)CC)[C@@H](C)O)[C@@H](C)O
MIC (broth microdilution; KCTC 1682, Mueller-Hinton broth; 24 h, 37 °C): 4 µM

CC[C@H](C)[C@H](NC(=O)[C@H](CO)NC(=O)CNC(=O)[C@H](CCCCN)NC(=O)[C@@H](NC(=O)[C@H](CC(N)=O)NC(=O)[C@H](Cc1ccccc1)NC(=O)[C@H](CC(N)=O)NC(=O)[C@@H](NC(=O)[C@H](CCCNC(=N)N)NC(=O)[C@@H]1CCCN1C(=O)[C@H](CCCNC(=N)N)NC(=O)[C@@H](NC(=O)[C@H](CCCNC(=N)N)NC(=O)[C@H](CCCNC(=N)N)NC(=O)[C@@H](NC(=O)[C@H](CCCNC(=N)N)NC(=O)[C@H](CO)NC(=O)[C@H](CC(C)C)NC(=O)[C@H](Cc1ccccc1)NC(=O)[C@H](CCCNC(=N)N)NC(=O)CNC(=O)[C@H](Cc1ccccc1)NC(=O)[C@H](CCCNC(=N)N)NC(=O)CNC(=O)[C@H](CCCNC(=N)N)NC(=O)[C@H](CCC(N)=O)NC(=O)[C@@H](NC(=O)[C@@H](N)CC(C)C)C(C)C)[C@@H](C)CC)[C@@H](C)CC)[C@@H](C)CC)[C@@H](C)CC)C(=O)O
MIC (broth microdilution; K88, Mueller-Hinton broth; 37 °C): 2.49 µM

CC[C@H](C)[C@H](NC(=O)CNC(=O)[C@H](CC(=O)O)NC(=O)[C@H](CCCNC(=N)N)NC(=O)[C@@H](NC(=O)[C@H](CC(N)=O)NC(=O)[C@H](CCCNC(=N)N)NC(=O)CNC(=O)[C@@H](NC(=O)[C@H](CCCCN)NC(=O)[C@H](CCC(=O)O)NC(=O)[C@@H](NC(=O)[C@H](CCCCN)NC(=O)[C@H](CCCCN)NC(=O)[C@H](Cc1ccccc1)NC(=O)[C@@H](NC(=O)[C@H](CCCCN)NC(=O)[C@H](Cc1c[nH]c2ccccc12)NC(=O)[C@@H](N)CCCNC(=N)N)[C@@H](C)CC)[C@@H](C)CC)C(C)C)C(C)C)C(=O)N[C@H](C(=O)N[C@@H](CCCCN)C(=O)N[C@@H](C)C(=O)NCC(=O)N1CCC[C@H]1C(=O)N[C@@H](C)C(=O)N[C@H](C(=O)N[C@@H](C)C(=O)N[C@H](C(=O)N[C@H](C(=O)NCC(=O)N[C@@H](CCC(N)=O)C(=O)N[C@@H](C)C(=O)N[C@@H](C)C(=O)N[C@H](C(=O)N[C@@H](C)C(=O)N[C@@H](C)C(=O)N[C@@H](CCCCN)C(N)=O)[C@@H](C)O)C(C)C)C(C)C)C(C)C)[C@@H](C)CC
MIC (KCTC 1682, Mueller-Hinton broth; 16 h, 37 °C; growth inhibition over 99%): 2 µM

CC[C@H](C)[C@H](NC(=O)[C@H](CCCCN)NC(=O)[C@H](CCCCN)NC(=O)[C@H](CCCCN)NC(=O)[C@H](CCCCN)NC(=O)[C@H](CCCCN)NC(=O)[C@@H](N)CCCCN)C(=O)N[C@@H](CO)C(=O)N[C@@H](Cc1ccccc1)C(=O)N[C@@H](CC(C)C)C(=O)NCC(=O)N[C@@H](CO)C(=O)N[C@@H](CCCCN)C(=O)N[C@H](C(=O)N[C@H](C(=O)N[C@H](C(=O)N[C@@H](CC(C)C)C(=O)N[C@@H](CC(C)C)C(=O)N[C@@H](CCCCN)C(=O)N[C@@H](CCCNC(=N)N)C(N)=O)C(C)C)C(C)C)C(C)C
MIC (broth microdilution; ATCC 25922; highest value reported): 8 µM

COc1c(N2CC3CCCNC3C2)c(F)cc2c(=O)c(C(=O)OCc3cnc([N+](=O)[O-])s3)cn(C3CC3)c12 (stereo not drawn)
MIC (NR 48983, fluoroquinolone-resistant): > 97 µM

CC[C@H](C)[C@H](N)C(=O)N[C@@H](CC(C)C)C(=O)NCC(=O)N[C@@H](CCC(=O)O)C(=O)N[C@H](C(=O)N[C@@H](Cc1c[nH]c2ccccc12)C(=O)N[C@@H](CCCCN)C(=O)NCC(=O)N[C@H](C(=O)N[C@@H](CCCCN)C(=O)N[C@@H](CC(=O)O)C(=O)N[C@H](C(=O)N[C@@H](CC(C)C)C(N)=O)[C@@H](C)CC)[C@@H](C)CC)[C@@H](C)CC
MIC (broth microdilution; ATCC 25922, Mueller-Hinton broth; 16 h, 37 °C): 100 µM

C[C@@H](O)[C@H]1C(=O)N2C(C(=O)O)=C(S[C@@H]3CN[C@H](C(=O)N(C)C)C3)[C@H](C)[C@H]12
MIC (NDM-1 producing; compound alone): 167 µM

CC[C@H](C)[C@H](NC(=O)[C@H](Cc1c[nH]c2ccccc12)NC(=O)[C@@H](NC(=O)[C@@H](NC(=O)[C@@H](NC(=O)[C@H](CCCNC(=N)N)NC(=O)[C@@H](N)CCCNC(=N)N)[C@@H](C)CC)[C@@H](C)O)[C@@H](C)CC)C(=O)N[C@H](C(=O)N[C@H](C(=O)N[C@@H](CCCNC(=N)N)C(=O)N[C@@H](CCCNC(=N)N)C(N)=O)[C@@H](C)CC)[C@@H](C)O
MIC (broth microdilution; 25922, Mueller-Hinton broth; 24 h, 37 °C, lowest concentration, 95% inhibition, together with: BSA): 32 µM

CC[C@H](C)[C@H](NC(=O)CNC(=O)[C@H](CC(=O)O)NC(=O)[C@H](CCCNC(=N)N)NC(=O)[C@@H](NC(=O)[C@H](CC(N)=O)NC(=O)[C@H](CCCNC(=N)N)NC(=O)CNC(=O)[C@@H](NC(=O)[C@H](CCCCN)NC(=O)[C@H](CCC(=O)O)NC(=O)[C@@H](NC(=O)[C@H](CCCCN)NC(=O)[C@H](CCCCN)NC(=O)[C@H](Cc1ccccc1)NC(=O)[C@@H](NC(=O)[C@H](CCCCN)NC(=O)[C@H](Cc1c[nH]c2ccccc12)NC(=O)[C@@H](N)CCCNC(=N)N)[C@@H](C)CC)[C@@H](C)CC)C(C)C)C(C)C)C(=O)N[C@H](C(=O)N[C@@H](CCCCN)C(=O)N[C@@H](C)C(=O)NCC(=O)N1CCC[C@H]1C(=O)N[C@@H](C)C(=O)N[C@H](C(=O)N[C@@H](C)C(=O)N[C@@H](C)C(=O)N[C@@H](C)C(=O)NCC(=O)N[C@@H](CCC(N)=O)C(=O)N[C@@H](C)C(=O)N[C@@H](C)C(=O)N[C@H](C(=O)N[C@H](C(=O)N[C@H](C(=O)N[C@@H](CCCCN)C(N)=O)C(C)C)C(C)C)[C@@H](C)O)C(C)C)[C@@H](C)CC
MIC (K1 ATCC 700973, Mueller-Hinton broth; 16 h, 37 °C; growth inhibition over 99%): 2 µM

CC1(C)SC2C(NC(=O)C(NC(=O)C3=C(O)CNC3=O)c3ccccc3)C(=O)N2C1C(=O)O (stereo not drawn)
MIC (broth microdilution; Keio mutant JW5086-3; 18 h, ferrienterobactin permease gene): 25 µg/mL

CC[C@H](C)[C@H](NC(=O)CN)C(=O)NCC(=O)N[C@@H](CCCCN)C(=O)N[C@@H](Cc1ccccc1)C(=O)N[C@@H](CC(C)C)C(=O)N[C@@H](Cc1c[nH]cn1)C(=O)N[C@@H](CO)C(=O)N[C@@H](C)C(=O)N[C@@H](CCCCN)C(=O)N[C@@H](CCCCN)C(=O)N[C@@H](Cc1ccccc1)C(=O)NCC(=O)N[C@@H](CCCCN)C(=O)N[C@@H](C)C(=O)N[C@@H](Cc1ccccc1)C(=O)N[C@H](C(=O)NCC(=O)N[C@@H](CCC(=O)O)C(=O)N[C@H](C(=O)N[C@@H](CCSC)C(=O)N[C@@H](CC(N)=O)C(=O)N[C@@H](CO)C(N)=O)[C@@H](C)CC)C(C)C
MIC (broth dilution; K12 BW25113): 3.6 µM

CCCCCCC/C=C/C(=O)N1C(=O)/C(=C(\O)c2ccc(F)cc2)C(=O)C1CC(C)C (stereo not drawn)
MIC (K12 ΔtolC): 1.56 µg/mL

CCCCCCCCCC(=O)N[C@@H](Cc1c[nH]c2ccccc12)C(=O)N[C@H](CC(N)=O)C(=O)N[C@@H](CC(=O)O)C(=O)N[C@@H]1C(=O)NCC(=O)N[C@@H](CCCN)C(=O)N[C@@H](CC(=O)O)C(=O)N[C@H](C)C(=O)N[C@@H](CC(=O)O)C(=O)NCC(=O)N[C@H](CO)C(=O)N[C@@H]([C@H](C)CC(=O)O)C(=O)N[C@@H](CC(=O)c2ccccc2N)C(=O)O[C@@H]1C
MIC (K12; 24 h): > 100 µM
